Results from different studies.
Lines come from different studies, so protocols differ. Several values in a cell are separate wells, animals, samples, runs or records.
CSNK1A1: Casein kinase I isoform alpha (CSNK1A1, Homo sapiens, UniProt P48729)
Chain of UniProt P48729 (whole entry, looked up): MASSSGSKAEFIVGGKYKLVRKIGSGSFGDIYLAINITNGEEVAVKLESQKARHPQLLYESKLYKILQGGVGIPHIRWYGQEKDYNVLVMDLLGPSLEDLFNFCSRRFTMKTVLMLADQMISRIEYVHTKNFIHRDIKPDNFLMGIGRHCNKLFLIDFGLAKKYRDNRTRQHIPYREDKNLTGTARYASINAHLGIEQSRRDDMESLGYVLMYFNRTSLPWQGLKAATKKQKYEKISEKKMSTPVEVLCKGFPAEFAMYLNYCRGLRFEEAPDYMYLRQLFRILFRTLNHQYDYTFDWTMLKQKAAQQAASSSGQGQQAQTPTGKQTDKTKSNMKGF
CSNK1D: Casein kinase I isoform delta (CSNK1D, Homo sapiens, UniProt P48730)
Chain of UniProt Q8TBX8 (whole entry, looked up): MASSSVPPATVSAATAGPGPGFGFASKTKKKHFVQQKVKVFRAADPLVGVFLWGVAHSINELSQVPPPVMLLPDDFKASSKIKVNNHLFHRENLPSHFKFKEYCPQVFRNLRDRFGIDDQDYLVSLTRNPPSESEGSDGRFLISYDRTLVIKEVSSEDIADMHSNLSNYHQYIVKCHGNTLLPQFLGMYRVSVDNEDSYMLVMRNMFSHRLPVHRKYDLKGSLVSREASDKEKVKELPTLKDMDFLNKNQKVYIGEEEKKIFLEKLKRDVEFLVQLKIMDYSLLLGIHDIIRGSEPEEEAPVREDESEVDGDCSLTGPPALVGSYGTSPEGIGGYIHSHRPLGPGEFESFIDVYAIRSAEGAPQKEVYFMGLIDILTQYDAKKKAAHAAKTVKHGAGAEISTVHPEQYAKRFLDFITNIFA
Chain of UniProt P48730 (whole entry, looked up): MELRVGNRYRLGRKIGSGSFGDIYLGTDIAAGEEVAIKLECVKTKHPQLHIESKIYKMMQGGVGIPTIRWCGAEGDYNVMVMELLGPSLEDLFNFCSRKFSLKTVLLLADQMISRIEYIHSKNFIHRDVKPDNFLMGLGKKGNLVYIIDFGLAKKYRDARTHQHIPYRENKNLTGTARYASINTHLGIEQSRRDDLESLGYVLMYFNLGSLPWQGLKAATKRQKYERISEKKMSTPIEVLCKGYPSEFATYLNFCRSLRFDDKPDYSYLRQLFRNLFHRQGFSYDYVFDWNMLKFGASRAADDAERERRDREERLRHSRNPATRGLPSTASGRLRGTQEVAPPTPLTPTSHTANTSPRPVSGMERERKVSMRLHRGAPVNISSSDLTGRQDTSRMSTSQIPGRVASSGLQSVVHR
Chain of UniProt P09622 (whole entry, unmodified, looked up): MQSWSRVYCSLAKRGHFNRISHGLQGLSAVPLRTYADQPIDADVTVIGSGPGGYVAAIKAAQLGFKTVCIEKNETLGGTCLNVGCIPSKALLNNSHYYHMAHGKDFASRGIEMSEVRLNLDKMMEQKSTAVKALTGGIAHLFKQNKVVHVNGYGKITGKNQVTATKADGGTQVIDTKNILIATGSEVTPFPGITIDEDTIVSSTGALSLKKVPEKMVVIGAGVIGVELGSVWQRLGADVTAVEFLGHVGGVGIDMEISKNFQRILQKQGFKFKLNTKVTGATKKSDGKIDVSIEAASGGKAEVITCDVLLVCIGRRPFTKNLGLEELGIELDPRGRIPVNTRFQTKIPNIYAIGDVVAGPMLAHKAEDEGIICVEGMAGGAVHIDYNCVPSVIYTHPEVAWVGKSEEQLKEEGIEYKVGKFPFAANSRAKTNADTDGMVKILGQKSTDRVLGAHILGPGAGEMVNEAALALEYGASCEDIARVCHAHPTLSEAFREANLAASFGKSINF
Chain of UniProt P10997 (whole entry, looked up): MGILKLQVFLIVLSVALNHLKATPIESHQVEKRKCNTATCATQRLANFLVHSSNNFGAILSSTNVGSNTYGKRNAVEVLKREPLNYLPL
Chain of UniProt Q92499 (whole entry, looked up): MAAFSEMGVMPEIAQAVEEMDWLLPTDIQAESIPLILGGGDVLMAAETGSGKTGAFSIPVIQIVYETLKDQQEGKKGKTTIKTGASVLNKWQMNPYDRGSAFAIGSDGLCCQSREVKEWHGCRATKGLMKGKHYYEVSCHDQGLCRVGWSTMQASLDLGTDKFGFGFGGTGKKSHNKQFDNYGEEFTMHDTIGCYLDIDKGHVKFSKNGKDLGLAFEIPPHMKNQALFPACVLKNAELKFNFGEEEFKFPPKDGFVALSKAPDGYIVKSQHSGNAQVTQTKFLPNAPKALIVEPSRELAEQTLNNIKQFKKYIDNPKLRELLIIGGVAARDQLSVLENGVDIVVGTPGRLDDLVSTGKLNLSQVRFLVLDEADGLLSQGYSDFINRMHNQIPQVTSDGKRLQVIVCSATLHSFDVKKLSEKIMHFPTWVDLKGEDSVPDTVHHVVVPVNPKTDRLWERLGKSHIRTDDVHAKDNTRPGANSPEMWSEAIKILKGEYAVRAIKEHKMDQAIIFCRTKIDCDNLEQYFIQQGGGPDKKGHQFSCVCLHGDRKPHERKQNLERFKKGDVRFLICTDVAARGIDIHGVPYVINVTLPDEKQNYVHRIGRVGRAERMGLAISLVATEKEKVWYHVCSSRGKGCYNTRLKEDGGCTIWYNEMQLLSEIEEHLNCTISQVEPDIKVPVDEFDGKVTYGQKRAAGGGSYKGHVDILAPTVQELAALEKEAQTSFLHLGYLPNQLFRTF
Chain of UniProt P16234 (whole entry, looked up): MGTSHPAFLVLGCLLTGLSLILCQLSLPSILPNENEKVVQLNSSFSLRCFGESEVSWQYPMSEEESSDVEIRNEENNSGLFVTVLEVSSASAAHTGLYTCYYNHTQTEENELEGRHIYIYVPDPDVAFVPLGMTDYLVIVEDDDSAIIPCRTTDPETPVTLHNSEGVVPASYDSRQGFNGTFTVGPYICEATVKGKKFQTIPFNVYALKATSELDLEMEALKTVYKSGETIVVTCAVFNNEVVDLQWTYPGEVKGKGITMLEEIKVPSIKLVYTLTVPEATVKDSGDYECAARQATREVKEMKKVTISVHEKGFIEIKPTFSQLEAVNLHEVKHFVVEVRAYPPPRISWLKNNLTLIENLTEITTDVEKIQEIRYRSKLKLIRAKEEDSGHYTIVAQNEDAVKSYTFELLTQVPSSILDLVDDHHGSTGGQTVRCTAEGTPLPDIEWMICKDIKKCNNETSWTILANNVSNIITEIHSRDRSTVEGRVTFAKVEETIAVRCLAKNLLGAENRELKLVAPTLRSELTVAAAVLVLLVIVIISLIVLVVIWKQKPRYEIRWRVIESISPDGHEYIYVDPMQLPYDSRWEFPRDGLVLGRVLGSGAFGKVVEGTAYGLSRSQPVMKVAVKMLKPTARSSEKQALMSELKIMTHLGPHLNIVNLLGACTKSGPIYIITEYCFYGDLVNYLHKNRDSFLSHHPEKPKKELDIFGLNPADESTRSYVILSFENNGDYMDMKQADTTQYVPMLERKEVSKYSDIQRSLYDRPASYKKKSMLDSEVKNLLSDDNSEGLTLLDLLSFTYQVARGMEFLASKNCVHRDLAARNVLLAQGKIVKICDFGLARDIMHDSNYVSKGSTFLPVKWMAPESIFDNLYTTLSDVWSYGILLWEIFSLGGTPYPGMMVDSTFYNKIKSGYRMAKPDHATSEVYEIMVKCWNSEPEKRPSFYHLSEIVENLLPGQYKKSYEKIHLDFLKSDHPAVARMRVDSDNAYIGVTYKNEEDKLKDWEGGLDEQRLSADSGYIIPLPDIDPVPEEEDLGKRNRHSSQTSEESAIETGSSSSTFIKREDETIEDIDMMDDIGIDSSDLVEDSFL
Chain of UniProt P07339 (whole entry, looked up): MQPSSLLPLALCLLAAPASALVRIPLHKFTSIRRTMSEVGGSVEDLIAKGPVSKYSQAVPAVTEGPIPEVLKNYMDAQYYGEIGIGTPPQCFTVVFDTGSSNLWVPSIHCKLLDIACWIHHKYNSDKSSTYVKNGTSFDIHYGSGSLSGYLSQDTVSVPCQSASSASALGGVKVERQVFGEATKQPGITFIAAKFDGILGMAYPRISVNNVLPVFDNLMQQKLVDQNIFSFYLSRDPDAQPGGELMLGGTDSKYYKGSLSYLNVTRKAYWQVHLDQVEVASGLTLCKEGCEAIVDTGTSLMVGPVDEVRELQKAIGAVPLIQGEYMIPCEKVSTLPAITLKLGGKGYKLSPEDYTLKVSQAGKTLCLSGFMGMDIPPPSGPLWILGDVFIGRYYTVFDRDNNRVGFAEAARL
Chain of UniProt P50750 (whole entry, looked up): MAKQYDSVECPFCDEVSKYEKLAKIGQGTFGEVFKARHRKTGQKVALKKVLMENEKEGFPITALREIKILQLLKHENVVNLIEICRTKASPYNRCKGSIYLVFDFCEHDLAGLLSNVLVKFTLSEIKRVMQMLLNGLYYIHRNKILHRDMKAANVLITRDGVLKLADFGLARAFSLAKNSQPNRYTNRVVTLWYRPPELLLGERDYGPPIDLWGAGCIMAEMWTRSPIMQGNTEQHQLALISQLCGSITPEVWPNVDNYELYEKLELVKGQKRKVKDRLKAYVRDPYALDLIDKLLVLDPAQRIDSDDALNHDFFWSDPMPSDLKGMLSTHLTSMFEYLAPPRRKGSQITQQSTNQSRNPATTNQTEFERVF
Chain of UniProt Q47319 (whole entry, unmodified, looked up): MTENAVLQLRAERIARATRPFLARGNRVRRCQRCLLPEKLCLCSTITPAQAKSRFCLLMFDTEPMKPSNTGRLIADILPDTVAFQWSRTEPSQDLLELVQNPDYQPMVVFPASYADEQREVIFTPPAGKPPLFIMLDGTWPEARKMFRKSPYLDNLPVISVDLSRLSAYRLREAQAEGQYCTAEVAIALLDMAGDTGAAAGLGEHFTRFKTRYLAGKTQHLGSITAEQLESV

SMILES	target	effect on	method	setting	Kd
CCn1cnc(C(=O)NC)c1C(=O)NC	CSNK1A1	binding	SPR		> 50 µM
Cc1cc(Nc2cc3ncccc3c(N[C@@H]3C[C@H]4CC[C@@H](C3)N4CCC#N)n2)n[nH]1	TNK1 (Homo sapiens, UniProt Q13470)	binding	competition with immobilised ligand		0.051 µM
OC[C@H]1OC(O)[C@H](O)[C@@H](O)[C@@H]1O (some centres unmarked)	ATP-dependent RNA helicase DDX1 (Homo sapiens, UniProt Q92499)	binding	MST		129 µM
Nc1ncnc2c1ncn2[C@@H]1O[C@H](COP(=O)(O)OP(=O)(O)OP(=O)(O)O)[C@@H](O)[C@H]1O	dnaA (Escherichia coli, UniProt P03004, V292M)	binding			0.04 µM
C[C@@H]1O[C@@H](O[C@H]2[C@H](Oc3cc(O)c4c(c3)O[C@H](c3ccc(O)cc3)CC4=O)O[C@H](CO)[C@@H](O)[C@@H]2O)[C@H](O)[C@H](O)[C@H]1O	IAPP (Homo sapiens, UniProt P10997)	binding	ITC		5.35 µM
Cc1cc(Nc2ccc(Cl)cc2)c2ccccc2n1	CSNK1A1	binding	SPR		> 50 µM
Cc1ncsc1-c1ccc([C@H](C)NC(=O)[C@@H]2C[C@@H](O)CN2C(=O)[C@@H](NC(=O)CCCCCC(=O)N2CCC3(CC2)CCN(c2cncc(Nc4ncc(Cl)c(-c5cccc(-c6ccccc6)c5)n4)c2)C3=O)C(C)(C)C)cc1	PIP4K2C (Homo sapiens, UniProt Q8TBX8)	binding			< 0.045 µM and 0.042 µM
Cn1cc(C(=O)Nc2cccc(C(=O)O)c2)ccc1=O	Bromodomain-containing protein 4, BD1 (BRD4, Homo sapiens, UniProt O60885)	binding	competition with immobilised ligand		33 µM
CCCN1CCN(c2ccc(-c3cncc(Cl)c3N3CCC4(CCNC4=O)CC3)cc2)CC1	CDK9 (Homo sapiens, UniProt P50750)	cell-free assay		lysate	4.6 µM
Cc1cnc(-c2ccc(-c3ccc(NC(=O)Nc4c(F)cc(F)cc4F)cc3F)c3c2C(=O)NC3)[nH]1	PDGFRA (Homo sapiens, UniProt P16234)	binding	competition with immobilised ligand		0.0021 µM
N#Cc1cc(I)c(O)c([N+](=O)[O-])c1	CSNK1D	binding	SPR		> 50 µM
C[S+](CC[C@H](N)C(=O)O)C[C@H]1O[C@@H](n2cnc3c(N)ncnc32)[C@H](O)[C@@H]1O (some centres unmarked)	tapT (Escherichia coli, UniProt Q47319, T182A)	binding	ITC		469 µM
CC(C)CC(=O)N[C@H](C(=O)N[C@H](C(=O)N[C@@H](CC(C)C)[C@@H](O)CC(=O)N[C@@H](C)C(=O)N[C@@H](CC(C)C)[C@@H](O)CC(=O)NCCOCCOCCC(=O)NCCCC[C@H](NC(=O)CN1CCN(CC(=O)O)CCN(CC(=O)O)CC1)C(=O)O)C(C)C)C(C)C	Cathepsin D (CTSD, Homo sapiens, UniProt P07339)	binding	SPR		7.85 µM
O=C(Nc1ccccc1)Nc1ccccn1	CSNK1D	binding	SPR		> 50 µM
Cc1cc2nc3c(=O)[nH]c(=O)nc-3n(C[C@H](O)[C@H](O)[C@H](O)COP(=O)(O)OP(=O)(O)OC[C@H]3O[C@@H](n4cnc5c(N)ncnc54)[C@H](O)[C@@H]3O)c2cc1C	DLD (Homo sapiens, UniProt P09622, K430Q)	binding	SPR		1.83 µM
O=C(COc1cccc2ccccc12)Nc1nc2ccccc2[nH]1	CSNK1A1	binding	SPR		1.1 µM
NC(=O)c1ccc[n+]([C@@H]2O[C@H](COP(=O)([O-])OP(=O)(O)OC[C@H]3O[C@@H](n4cnc5c(N)ncnc54)[C@H](O)[C@@H]3O)[C@@H](O)[C@H]2O)c1	DLD (Homo sapiens, UniProt P09622, K430R)	binding	SPR		1.86 µM

For quick reference, copied from above:
SMILES	target	effect on	method	setting	Kd
CC(C)CC(=O)N[C@H](C(=O)N[C@H](C(=O)N[C@@H](CC(C)C)[C@@H](O)CC(=O)N[C@@H](C)C(=O)N[C@@H](CC(C)C)[C@@H](O)CC(=O)NCCOCCOCCC(=O)NCCCC[C@H](NC(=O)CN1CCN(CC(=O)O)CCN(CC(=O)O)CC1)C(=O)O)C(C)C)C(C)C	Cathepsin D (CTSD, Homo sapiens, UniProt P07339)	binding	SPR		7.85 µM
O=C(Nc1ccccc1)Nc1ccccn1	CSNK1D	binding	SPR		> 50 µM
C[S+](CC[C@H](N)C(=O)O)C[C@H]1O[C@@H](n2cnc3c(N)ncnc32)[C@H](O)[C@@H]1O (some centres unmarked)	tapT (Escherichia coli, UniProt Q47319, T182A)	binding	ITC		469 µM
